Experimental data gathered from unrelated publications.
A part holds a random share of what one study measured. Positions count from the first letter of the parent shown.

Block 1
Target: Interferon regulatory factor 7, full length, phosphomimetic (IRF7, Homo sapiens, UniProt Q92985, residues 1-503, S101K/S471D/S472D/S475D/S476D/S477D/S483D/S484D/S487D)
UniProt Q92985, sequence (whole entry, unmodified, looked up): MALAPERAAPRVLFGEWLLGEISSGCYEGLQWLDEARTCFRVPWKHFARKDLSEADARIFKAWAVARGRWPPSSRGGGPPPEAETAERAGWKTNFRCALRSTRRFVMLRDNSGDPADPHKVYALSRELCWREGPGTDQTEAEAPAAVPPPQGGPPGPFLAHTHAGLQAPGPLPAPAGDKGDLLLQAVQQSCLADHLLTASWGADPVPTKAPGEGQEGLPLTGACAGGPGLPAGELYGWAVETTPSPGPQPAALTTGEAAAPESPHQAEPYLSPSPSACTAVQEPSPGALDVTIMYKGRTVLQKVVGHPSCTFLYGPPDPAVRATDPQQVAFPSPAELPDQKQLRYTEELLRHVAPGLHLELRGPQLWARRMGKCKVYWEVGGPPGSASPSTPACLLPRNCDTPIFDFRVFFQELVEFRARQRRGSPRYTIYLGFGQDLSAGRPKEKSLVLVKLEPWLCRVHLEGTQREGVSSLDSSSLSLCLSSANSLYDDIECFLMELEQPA
Technique: protein-binding microarray
Molecule type: double-stranded DNA, one strand shown
Matrix: in vitro
Concentration: 250 nM
Notes: 60-bp whole probe
Added: salmon DNA 0.4 mg/ml
Baseline: random background probes
Direction: higher = stronger binding
Constant ends, left off below: GCCTAGCAC … GTCTTGATTCGCTTGACGCTGCTG
Sequence	log fluorescence
GACGGACTGCGGACTGGGGACGTGCTA	-0.637 z-score
TACTCTACAGGGTTTCACTTTGTGCTA	4 z-score
TTGGTTCTTATCCTTCCCCTCGTGCTA	0.624 z-score
AGGTGGGAGGGGACAGTGGTGTGCTAG	0.405 z-score
GACTGACTGCTTATCCTGACGTGCTAG	-0.276 z-score
TTAGGTAGCCTTATCCTTTAGTGCTAG	-0.578 z-score
GGCTTTTTAATGAATGAAGAGGTGCTA	0.104 z-score
CTCACTCTGTCCCTCTGTGAGTGCTAG	0.49 z-score
GACGGTTTCCTTGCCCTGACGTGCTAG	1.01 z-score
GACGGTTCCCTTCTCCTGACGTGCTAG	0.967 z-score
TTAGATTCCAGTTTCGATTAGTGCTAG	10.2 z-score
GACGGTCTCCTTCTCCTGTCGTGCTAG	0.414 z-score

Block 2
Target: CCNE1, cyclin fold, Cln2 fusion (human)
Technique: yeast growth competition, sequencing
Matrix: yeast
Notes: strong parent motif
Baseline: not given
Direction: higher = stronger binding
Starting sequence: E2F1 docking peptide (human); PPVKRRLDLETDH
Variant	normalised enrichment score
PPVKIRLDLETDH [R5I]	-0.123
PPKKRRLDLETDH [V3K]	0.861
PPVKRDLDLETDH [R6D]	-1.16
PPVKRRLPLETDH [D8P]	0.0833
PPVKRRLDLETDI [H13I]	2.5
PPVKRRLDLEQDH [T11Q]	1.22
PPVKRRLDLETTH [D12T]	1.44
PPVKRRLDLEPDH [T11P]	2.92
PPVKRRLKLETDH [D8K]	1.17

Block 3
Molecule: PhoQ, residues 284 288 289 292 302 303 TNASYF
Technique: Sort-seq
Refers to: YFP reporter
Matrix: E. coli
Notes: PhoQ-PhoP variant library
Added: 10 µM Mg2+
Baseline: high Mg2+ state
Direction: higher = stronger signaling
target	fold induction
PhoP, residues 12 14 15 18 19 GMGLL (Escherichia coli, UniProt P23836)	1.73
PhoP, residues 12 14 15 18 19 QQAYL (Escherichia coli, UniProt P23836)	4.14
PhoP, residues 12 14 15 18 19 LFHKL (Escherichia coli, UniProt P23836)	3.09

Block 4
Target: RNA binding protein fox-1 homolog 2, RRM domain, GST-SBP tag (RBFOX2, Homo sapiens, UniProt O43251-10, residues 100-194)
Technique: RNA Bind-n-Seq
Molecule type: RNA
Matrix: in vitro
Concentration: 365 nM
Notes: natural RNA segment, single round, ends assumed
Baseline: no-protein control
Direction: higher = stronger binding
Constant ends, left off below: GGGAGUUCUACAGUCCGACGAUC … UGGAAUUCUCGGGUGCCAA
Target sequence (chain): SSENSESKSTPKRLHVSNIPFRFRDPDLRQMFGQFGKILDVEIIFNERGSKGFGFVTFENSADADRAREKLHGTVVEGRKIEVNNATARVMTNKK
Sequence	RBNS enrichment (R)
UUGCACAGUACUAAGAGACUCAUUCAGAAAUCAAGACUUUAGAUGUAAUAUGUUGAUUAAAAUGUAGCACUAGAAAGCUUGUACUGAAAAUAAAGUCUGUGAGUGUGGGU	0.528
CCGUAUUAAGAAAUCAGAACAGUGCCUUAAGACAGACUGAGACGUCGUGAAAAAUGUGUUCACACUGUGGGAGGCAAAGCUUGGUCUGAGAAUGUAACUGUUGAUGUGAG	1.22
CUUGCUUCCAUAUUGGAGCUCCUCAGUAGGAACAGCUGUGGCACUGGGCUGGGGACCAGGAAGAAGUCACAAGUGGUGGGAGUAUCCUAGGGACAUGAGUCGUGCCCAGG	0.79
UUCAUGUCAAGAUCACUACAACACCAUCUCUUCCAUUCACAAAGUUGAGUCUGUUCCUUUCAUCUAAUCCAUUGGUUCUCAACCUUCCUAAUGCUGUAACCCUUUAAUAC	0.838
AAAAACAUUAUUGGCAUCUGGAGAUUAUUGCAACGUUCUCCUAACCUGUCACAGAAAGCAGUUGCUUGAAAAUUAGCCACAAAUUGGUACAAUGUUAUUUCAAUCUUAUA	0.785
AAAGAGUAUUAGCUUCUGCUUCCGGACUCAGUCUUUGUUGAGUGGGCCACUUCCAGGGGUGUGCCCGGGGUUAGGCAAGUGGCAGACGAGGGUUCUUAUUUGAGGCUUUG	0.906
UUGUUAUGUUGUAAUAUUUUGCUGCUGAAUUUGGGGCUACUUAUAUUCUGCAGAAAAUUAAUUGAAAUACCUAUUCAAGAAGAUAGUUGUAAAGAUAUUGUAUCUCCUUU	0.263
AAUGGCUGCUGUAUAUUUACAAUAUGGAAUUCUGAGUUAAGUACCGCCCUUCAUACUGGGAACAGAAUGUAUGUAACCCAUGUCAAUCAGAUGCAGGUGGUACCCACACG	1.73
UCACCCUUCCUCUUCCUGUCACAGUGACAGGUCUUCACUAGCUGGCUUCUUUCUGUACUUGCUGACUUCUGUCAUAUUUCUUUCCAGAUGUGUUUACAGGUCCCUGUAAG	0.414
AUAAACAAAUUGUUCAAUUUUAGGAAUUCCCCGUUACCUCCACAGUCAGUUGUGAGGGCCUGAUUAGACUCUGGAGCAUGGUGUACGACUCUUCUCCAAGAGCGCAUGCA	2.1
AGAAGACUCGUGUCUUGCUGUAGAAUCCAGUUUGGUUUCAGCAGCUUGACUUAAUGCACUUACAGGCUCAGGAAGGAAUUUGCUAUCACUGUUGUGGCUUUUGACUUGGG	0.475
CAGCAGCAGCUGCACUGGAACAGUCAGAGCAGGGAGCCUCUUCCUCAACCCAGCUUUUUGUCAUUCACUUCCUUUUGUUCUCUCUCUGGUCACUGCCCUUACCUGACCCU	1.14

Excerpt of the above (block 1):
Sequence	log fluorescence
GACGGACTGCGGACTGGGGACGTGCTA	-0.637 z-score
TACTCTACAGGGTTTCACTTTGTGCTA	4 z-score
TTGGTTCTTATCCTTCCCCTCGTGCTA	0.624 z-score
